{"data": "Results pooled from the literature", "note": "± marks the error that the study gave."}
{"Compound": "CCCCCCCCCCCCCCCC(=O)N[C@@H](CCC(=O)NCCCC[C@H](NC(=O)[C@H](CC(=O)O)NC(=O)[C@H](CO)NC(=O)[C@@H](NC(=O)[C@H](Cc1ccccc1)NC(=O)[C@@H](NC(=O)CNC(=O)[C@H](CCC(N)=O)NC(=O)[C@H](CO)NC(=O)[C@@H](N)Cc1c[nH]cn1)[C@@H](C)O)[C@@H](C)O)C(=O)N[C@@H](CO)C(=O)N[C@@H](CCC(=O)O)C(=O)N[C@@H](Cc1ccc(O)cc1)C(=O)N[C@@H](CC(C)C)C(=O)N[C@@H](CC(=O)O)C(=O)N[C@@H](CO)C(=O)N[C@@H](CCC(=O)O)C(=O)N[C@@H](CCCNC(=N)N)C(=O)N[C@@H](C)C(=O)N[C@@H](CCCNC(=N)N)C(=O)N[C@@H](CC(=O)O)C(=O)N[C@@H](Cc1ccccc1)C(=O)N[C@H](C(=O)N[C@@H](C)C(=O)N[C@@H](Cc1c[nH]c2ccccc12)C(=O)N[C@@H](CC(C)C)C(=O)N[C@@H](CCC(=O)O)C(=O)N[C@@H](C)C(=O)NCC(=O)NCC(=O)O)C(C)C)C(=O)O", "system": "male cynomolgus monkey", "conditions": "subcutaneous, 16 nmol/kg/day for 8 weeks, day 57", "how to read": "reference: starting body weight", "quantity": "body weight loss", "result": "7%"}
{"Compound": "CCNC(=O)[C@@H]1CCCN1C(=O)[C@H](CCCNC(=N)N)NC(=O)[C@H](CC(C)C)NC(=O)[C@@H](CC(C)C)NC(=O)[C@H](Cc1ccc(O)cc1)NC(=O)[C@H](CO)NC(=O)[C@H](Cc1c[nH]c2ccccc12)NC(=O)[C@H](Cc1c[nH]cn1)NC(=O)[C@@H]1CCC(=O)N1", "system": "Sprague-Dawley rat, serum", "conditions": "subcutaneous, 100 µg/kg/day, 35 days", "quantity": "time to castration testosterone", "result": "2 days"}
{"Compound": "CC[C@H]1[C@@H](O)[C@@H]2[C@H](CC[C@]3(C)[C@@H]([C@H](C)CCOS(=O)(=O)[O-])CC[C@@H]23)[C@@]2(C)CC[C@@H](O)C[C@@H]12.[Na+]", "assay": "histology", "system": "ob/ob NASH mouse model, liver", "conditions": "oral, 3 mg/kg once daily, 8 weeks, scale 0 to 2", "how to read": "direction not given", "quantity": "ballooning score", "result": "0.7 ± 0.1"}
{"Compound": "Cc1ccc(-c2oc3ccccc3c(=O)c2OCc2ccccc2)cc1", "system": "diabetic rat", "conditions": "5 mg/kg, p-nitrophenyl β-glucoside induced", "quantity": "serum alkaline phosphatase", "result": "199 ± 4.11 IU"}
{"Compound": "C=CC(=O)N1C[C@H](C)N(c2nc(OC[C@@]34CCCN3C[C@H](F)C4)nc3c(F)c(-c4ccc(F)c5sc(N)c(C#N)c45)c(C(F)(F)F)cc23)C[C@H]1C", "system": "MIA PaCa-2 Matrigel plug, mouse", "conditions": "oral, 3 mg/kg single dose, 6 h", "quantity": "pERK inhibition", "result": "46%"}
{"Compound": "CCOP(=O)(CC(=O)Nc1ccc(S(=O)(=O)N(CC(N)=O)c2ccc(N(CC(N)=O)S(=O)(=O)c3ccc(OC)cc3)c3ccccc23)cc1)OCC", "assay": "Morris water maze probe trial", "system": "APP/PS1 mice", "conditions": "intragastric, 40 mg/kg, 60 days, lentivirus intracerebroventricular", "how to read": "reference: untreated APP/PS1", "quantity": "platform crossings", "result": "increased"}
{"Compound": "COc1ccc(C2CC(c3ccc(C)cc3)=Nc3ccccc3S2)cc1 (stereo not shown)", "system": "rat, normal, overnight fasted", "conditions": "oral, 10 mg/kg, 30 min, oral glucose tolerance test, added: glucose 3 g/kg oral", "quantity": "blood glucose", "result": "120 ± 4.01 mg/dL"}
{"Compound": "[2H]C([2H])([2H])C(c1cc2nnc(-c3cc(F)ccc3F)n2nc1OCc1ncnn1C)(C([2H])([2H])[2H])C([2H])([2H])[2H]", "system": "GAERS rats", "conditions": "oral, 0.075 to 100 mg/kg", "quantity": "duration of SWD inhibition", "result": "> 130 min"}
{"Compound": "COc1ccc(-c2oc3ccccc3c(=O)c2OCc2ccccc2)cc1", "system": "diabetic rat", "conditions": "5 mg/kg, p-nitrophenyl β-glucoside induced", "quantity": "serum alanine aminotransferase", "result": "38.7 ± 2.61 IU"}
{"Compound": "CCCOC(=O)Cc1c(C)n(C(=O)c2ccc(Cl)cc2)c2ccc(OC)cc12", "system": "BALB/c mice, acetic acid writhing", "conditions": "intraperitoneal, 10 mg/kg, 20 min count", "quantity": "writhing count", "result": "15.5 ± 1.06"}
{"Compound": "CCCC[C@H](NC(=O)[C@@H](NC(=O)[C@H](CC(=O)O)NC(=O)[C@H](CCC(N)=O)NC(=O)[C@H](CC(C)C)NC(=O)[C@H](CC(C)C)NC(=O)[C@H](CCCN)NC(=O)[C@H](CCCNC(=N)N)NC(=O)[C@H](C)NC(=O)[C@H](CO)NC(=O)[C@H](CC(C)C)NC(=O)[C@H](CCC(N)=O)NC(=O)[C@H](CC)NC(=O)[C@H](CC(C)C)NC(=O)[C@@H](NC(=O)[C@H](CCCN)NC(=O)[C@H](CCCNC(=N)N)NC(=O)[C@H](Cc1ccc(O)cc1)NC(=O)[C@H](CO)NC(=O)[C@H](CCC(N)=O)NC(=O)[C@@H](NC(=O)[C@H](Cc1ccccc1)NC(=O)[C@@H](NC(=O)[C@H](C)NC(=O)[C@H](CC(=O)O)NC(=O)[C@@H](C)NC(=O)[C@H](Cc1ccc(O)cc1)N(C)C(C)=O)[C@@H](C)CC)[C@@H](C)O)C(C)C)[C@@H](C)CC)C(=O)N[C@@H](CC(=O)O)C(=O)NCCCCNC(=N)N", "assay": "GH release, ELISA", "system": "male Sprague-Dawley rat, anaesthetised, serum", "conditions": "subcutaneous, 3 µg/kg, 0 min", "quantity": "serum GH level", "result": "30.6 ± 7.2 ng/mL"}
{"Compound": "Cc1cc2c(cc1C1(c3ncc(C(=O)O)cn3)CC1)C(C)(C)CCC2(C)C", "assay": "RNA sequencing, measured: Nmu", "system": "rat, brain", "conditions": "dose not given, 24 h", "how to read": "reference: vehicle", "quantity": "log2 fold change", "result": -0.41}
{"Compound": "COc1c2c(cc3oc(C)cc(=O)c13)O[C@H](C(C)(C)O[C@@H]1O[C@H](CO)[C@@H](O)[C@H](O)[C@H]1O)C2", "system": "mouse, xylene ear edema", "conditions": "oral, 4 mg/kg", "quantity": "ear edema weight increase", "result": "6.13 ± 0.25 mg"}
{"Compound": "CN(C)c1ccc(-c2oc3ccccc3c(=O)c2OCc2ccccc2)cc1", "system": "diabetic rat", "conditions": "7.5 mg/kg, 28 days, p-nitrophenyl β-glucoside induced", "quantity": "serum HDL cholesterol", "result": "48 ± 1.99 mg/dL"}
{"Compound": "CCNC(=O)OCc1c(COC(=O)NCC)c(-c2ccc(OC)cc2)n2c1Cc1ccccc1-2", "assay": "histopathology", "system": "mice with NCI-H460 xenograft", "conditions": "dose not given, day 29", "quantity": "lung metastasis", "result": "67%"}
{"Compound": "Cc1cc(O)c(C=O)c2c1C(=O)Oc1c(CO)c(O)c3c(c1O2)C(O)OC3=O (stereo not shown)", "system": "rat, male, streptozotocin-induced diabetes", "conditions": "10 mg/kg, 0 weeks", "quantity": "serum insulin", "result": "3.43 ± 0.2 mIU/L"}
{"Compound": "CC(=O)N[C@H](CSSC[C@H](N)C(=O)O)C(=O)N[C@H](C)C(=O)N[C@H](CCCNC(=N)N)C(=O)N[C@H](CCCNC(=N)N)C(=O)N[C@H](CCCNC(=N)N)C(=O)N[C@H](C)C(=O)N[C@H](CCCNC(=N)N)C(N)=O", "system": "healthy male human", "conditions": "intravenous, 10 mg single, 24 h", "quantity": "serum FGF23 decrease", "result": "> 30%"}
{"Compound": "CCCCCCOC(=O)Cc1c(C)n(C(=O)c2ccc(Cl)cc2)c2ccc(OC)cc12", "assay": "hot plate test", "system": "BALB/c mice", "conditions": "75 mg/kg, 120 min", "quantity": "latency of nociceptive response", "result": "16.3 ± 1.01 s"}
{"Compound": "CCCC[C@H](NC(=O)[C@@H](NC(=O)[C@H](CC(=O)O)NC(=O)[C@H](CCC(N)=O)NC(=O)[C@H](CC(C)C)NC(=O)[C@H](CC(C)C)NC(=O)[C@H](CCCN)NC(=O)[C@H](CCCNC(=N)N)NC(=O)[C@H](C)NC(=O)[C@H](CO)NC(=O)[C@H](CC(C)C)NC(=O)[C@H](CCC(N)=O)NC(=O)[C@H](CC)NC(=O)[C@H](CC(C)C)NC(=O)[C@@H](NC(=O)[C@H](CCCN)NC(=O)[C@H](CCCNC(=N)N)NC(=O)[C@H](Cc1ccc(O)cc1)NC(=O)[C@H](CO)NC(=O)[C@H](CCC(N)=O)NC(=O)[C@@H](NC(=O)[C@H](Cc1ccccc1)NC(=O)[C@@H](NC(=O)[C@H](C)NC(=O)[C@H](CC(=O)O)NC(=O)[C@H](C)NC(=O)CCc1ccc(O)cc1)[C@@H](C)CC)[C@@H](C)O)C(C)C)[C@@H](C)CC)C(=O)N[C@@H](CC(=O)O)C(=O)NCCCCNC(=N)N", "assay": "GH release, ELISA", "system": "male rat, anaesthetised, serum", "conditions": "intravenous, 1 µg/kg, 0 min", "quantity": "serum GH level", "result": "48 ± 10.4 ng/mL"}
{"Compound": "COc1ccc2c(c1)c(CC(=O)OCC(=O)OC(C)(C)C)c(C)n2C(=O)c1ccc(Cl)cc1", "assay": "acetic acid writhing test", "system": "BALB/c mouse", "conditions": "intraperitoneal, 30 mg/kg", "how to read": "reference: negative control", "quantity": "analgesia", "result": "73.3%"}
{"Compound": "CCCC[C@H](NC(=O)[C@@H](NC(=O)[C@H](CC(=O)O)NC(=O)[C@H](CCC(N)=O)NC(=O)[C@H](CC(C)C)NC(=O)[C@H](CC(C)C)NC(=O)[C@H](CCCN)NC(=O)[C@H](CCCNC(=N)N)NC(=O)[C@H](C)NC(=O)[C@H](CO)NC(=O)[C@H](CC(C)C)NC(=O)[C@H](CCC(N)=O)NC(=O)[C@H](CC)NC(=O)[C@H](CC(C)C)NC(=O)[C@@H](NC(=O)[C@H](CCCN)NC(=O)[C@H](CCCNC(=N)N)NC(=O)[C@H](Cc1ccc(O)cc1)NC(=O)[C@H](CO)NC(=O)[C@H](CCC(N)=O)NC(=O)[C@@H](NC(=O)[C@H](Cc1ccccc1)NC(=O)[C@@H](NC(=O)[C@H](C)NC(=O)[C@H](CC(=O)O)NC(=O)[C@H](C)NC(=O)CCc1ccc(O)cc1)[C@@H](C)CC)[C@@H](C)O)C(C)C)[C@@H](C)CC)C(=O)N[C@@H](CC(=O)O)C(=O)N[C@@H](CCCNC(=N)N)C(=O)NC", "assay": "GH release, ELISA", "system": "male Sprague-Dawley rat, anaesthetised, serum", "conditions": "subcutaneous, 3 µg/kg, 0 min", "quantity": "serum GH level", "result": "36.7 ± 10.2 ng/mL"}
{"Compound": "Cc1ccc(CN2C(=O)/C(=N\\c3ccc(Cl)cc3Br)c3ccccc32)cc1", "assay": "flow cytometry", "system": "mouse tumour model, tumour tissue", "conditions": "ip, 20 mg/kg", "quantity": "M2 macrophages in TAMs", "result": "14.2%"}
{"note": "For quick reference, copied from above:"}
{"Compound": "CN(C)c1ccc(-c2oc3ccccc3c(=O)c2OCc2ccccc2)cc1", "system": "diabetic rat", "conditions": "7.5 mg/kg, 28 days, p-nitrophenyl β-glucoside induced", "quantity": "serum HDL cholesterol", "result": "48 ± 1.99 mg/dL"}
{"Compound": "COc1ccc(C2CC(c3ccc(C)cc3)=Nc3ccccc3S2)cc1 (stereo not shown)", "system": "rat, normal, overnight fasted", "conditions": "oral, 10 mg/kg, 30 min, oral glucose tolerance test, added: glucose 3 g/kg oral", "quantity": "blood glucose", "result": "120 ± 4.01 mg/dL"}
